Experimental data from different studies.
Protocols differ between the studies behind these lines. ± marks the error that the study gave.
PIK3CA: Phosphatidylinositol 4,5-bisphosphate 3-kinase catalytic subunit alpha isoform (PIK3CA, Homo sapiens, UniProt P42336)
Chain of UniProt P42336 (whole entry, looked up): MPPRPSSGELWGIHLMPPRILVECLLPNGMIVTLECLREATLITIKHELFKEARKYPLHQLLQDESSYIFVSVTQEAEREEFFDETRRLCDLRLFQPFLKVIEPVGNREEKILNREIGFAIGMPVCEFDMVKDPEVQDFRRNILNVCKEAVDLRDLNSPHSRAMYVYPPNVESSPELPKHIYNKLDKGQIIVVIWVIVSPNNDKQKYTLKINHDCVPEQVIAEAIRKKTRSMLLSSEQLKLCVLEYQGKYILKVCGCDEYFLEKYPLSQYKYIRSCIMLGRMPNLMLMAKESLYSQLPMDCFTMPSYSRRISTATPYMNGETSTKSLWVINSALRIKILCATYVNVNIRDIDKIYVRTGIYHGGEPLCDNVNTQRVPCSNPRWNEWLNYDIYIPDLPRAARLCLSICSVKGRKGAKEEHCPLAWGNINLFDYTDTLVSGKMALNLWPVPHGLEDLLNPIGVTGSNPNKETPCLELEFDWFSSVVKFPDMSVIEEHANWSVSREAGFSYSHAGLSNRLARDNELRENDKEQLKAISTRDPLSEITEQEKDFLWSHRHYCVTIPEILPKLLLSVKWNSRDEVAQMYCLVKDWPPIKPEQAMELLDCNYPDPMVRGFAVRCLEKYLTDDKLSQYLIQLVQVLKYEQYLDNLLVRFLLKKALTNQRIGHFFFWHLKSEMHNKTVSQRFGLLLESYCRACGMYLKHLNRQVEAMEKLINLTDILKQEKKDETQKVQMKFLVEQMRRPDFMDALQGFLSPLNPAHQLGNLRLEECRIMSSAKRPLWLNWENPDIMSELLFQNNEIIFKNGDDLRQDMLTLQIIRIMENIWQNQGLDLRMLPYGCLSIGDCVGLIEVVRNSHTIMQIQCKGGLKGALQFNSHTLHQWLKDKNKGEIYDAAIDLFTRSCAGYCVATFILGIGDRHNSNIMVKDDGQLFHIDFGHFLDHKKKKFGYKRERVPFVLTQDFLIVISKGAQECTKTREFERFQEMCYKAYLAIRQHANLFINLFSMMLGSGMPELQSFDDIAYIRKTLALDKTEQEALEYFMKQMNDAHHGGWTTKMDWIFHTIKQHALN
Chain of UniProt Q7RTT9 (whole entry, looked up): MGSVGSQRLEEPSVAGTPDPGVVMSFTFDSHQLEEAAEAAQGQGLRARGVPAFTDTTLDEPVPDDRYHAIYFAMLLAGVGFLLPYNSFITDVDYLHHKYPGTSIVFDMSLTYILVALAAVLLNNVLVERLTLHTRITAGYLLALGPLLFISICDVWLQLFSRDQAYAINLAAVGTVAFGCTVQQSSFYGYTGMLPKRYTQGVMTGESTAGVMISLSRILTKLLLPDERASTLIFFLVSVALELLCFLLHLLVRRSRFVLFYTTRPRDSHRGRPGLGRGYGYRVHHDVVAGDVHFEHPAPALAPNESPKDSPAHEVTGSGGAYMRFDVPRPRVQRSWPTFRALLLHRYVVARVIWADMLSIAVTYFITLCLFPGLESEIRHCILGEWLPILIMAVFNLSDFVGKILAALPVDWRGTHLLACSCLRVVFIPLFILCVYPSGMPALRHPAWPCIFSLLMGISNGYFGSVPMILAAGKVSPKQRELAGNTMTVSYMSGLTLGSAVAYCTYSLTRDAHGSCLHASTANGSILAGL
Chain of UniProt Q13547 (whole entry, looked up): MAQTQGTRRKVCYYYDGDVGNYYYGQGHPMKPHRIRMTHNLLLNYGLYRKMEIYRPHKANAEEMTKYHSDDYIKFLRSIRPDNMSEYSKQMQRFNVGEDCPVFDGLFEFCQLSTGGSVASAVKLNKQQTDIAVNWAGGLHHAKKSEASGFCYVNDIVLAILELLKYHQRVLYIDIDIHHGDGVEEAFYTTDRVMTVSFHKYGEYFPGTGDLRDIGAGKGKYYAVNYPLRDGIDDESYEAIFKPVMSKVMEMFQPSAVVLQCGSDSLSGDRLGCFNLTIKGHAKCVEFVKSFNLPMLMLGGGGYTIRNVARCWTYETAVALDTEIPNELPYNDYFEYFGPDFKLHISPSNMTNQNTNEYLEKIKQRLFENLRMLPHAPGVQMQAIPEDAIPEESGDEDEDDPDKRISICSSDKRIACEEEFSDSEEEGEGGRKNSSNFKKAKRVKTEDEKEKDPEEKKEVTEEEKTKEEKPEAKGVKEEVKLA
Chain of UniProt P56817 (whole entry, looked up): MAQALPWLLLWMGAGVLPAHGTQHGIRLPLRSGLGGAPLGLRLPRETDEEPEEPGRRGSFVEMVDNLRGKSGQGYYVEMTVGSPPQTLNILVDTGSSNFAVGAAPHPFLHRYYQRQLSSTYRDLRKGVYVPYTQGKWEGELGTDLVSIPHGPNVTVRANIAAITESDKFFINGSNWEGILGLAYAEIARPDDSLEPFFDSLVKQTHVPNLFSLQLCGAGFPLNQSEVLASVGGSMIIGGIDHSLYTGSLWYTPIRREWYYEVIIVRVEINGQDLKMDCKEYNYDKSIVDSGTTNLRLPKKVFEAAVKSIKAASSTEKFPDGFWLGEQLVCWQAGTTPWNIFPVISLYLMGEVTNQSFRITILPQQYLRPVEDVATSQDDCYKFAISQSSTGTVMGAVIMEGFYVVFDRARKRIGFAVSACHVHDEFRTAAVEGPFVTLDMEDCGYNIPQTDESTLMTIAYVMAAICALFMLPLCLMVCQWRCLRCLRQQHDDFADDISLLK
Chain of UniProt P9WG57 (whole entry, looked up): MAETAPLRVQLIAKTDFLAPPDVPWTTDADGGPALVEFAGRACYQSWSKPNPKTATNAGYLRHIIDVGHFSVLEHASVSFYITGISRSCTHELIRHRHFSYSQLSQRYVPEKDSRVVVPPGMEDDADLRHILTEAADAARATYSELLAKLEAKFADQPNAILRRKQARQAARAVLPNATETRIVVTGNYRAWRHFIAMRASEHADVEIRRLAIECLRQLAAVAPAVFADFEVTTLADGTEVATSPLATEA
Chain of UniProt P42260 (whole entry, looked up): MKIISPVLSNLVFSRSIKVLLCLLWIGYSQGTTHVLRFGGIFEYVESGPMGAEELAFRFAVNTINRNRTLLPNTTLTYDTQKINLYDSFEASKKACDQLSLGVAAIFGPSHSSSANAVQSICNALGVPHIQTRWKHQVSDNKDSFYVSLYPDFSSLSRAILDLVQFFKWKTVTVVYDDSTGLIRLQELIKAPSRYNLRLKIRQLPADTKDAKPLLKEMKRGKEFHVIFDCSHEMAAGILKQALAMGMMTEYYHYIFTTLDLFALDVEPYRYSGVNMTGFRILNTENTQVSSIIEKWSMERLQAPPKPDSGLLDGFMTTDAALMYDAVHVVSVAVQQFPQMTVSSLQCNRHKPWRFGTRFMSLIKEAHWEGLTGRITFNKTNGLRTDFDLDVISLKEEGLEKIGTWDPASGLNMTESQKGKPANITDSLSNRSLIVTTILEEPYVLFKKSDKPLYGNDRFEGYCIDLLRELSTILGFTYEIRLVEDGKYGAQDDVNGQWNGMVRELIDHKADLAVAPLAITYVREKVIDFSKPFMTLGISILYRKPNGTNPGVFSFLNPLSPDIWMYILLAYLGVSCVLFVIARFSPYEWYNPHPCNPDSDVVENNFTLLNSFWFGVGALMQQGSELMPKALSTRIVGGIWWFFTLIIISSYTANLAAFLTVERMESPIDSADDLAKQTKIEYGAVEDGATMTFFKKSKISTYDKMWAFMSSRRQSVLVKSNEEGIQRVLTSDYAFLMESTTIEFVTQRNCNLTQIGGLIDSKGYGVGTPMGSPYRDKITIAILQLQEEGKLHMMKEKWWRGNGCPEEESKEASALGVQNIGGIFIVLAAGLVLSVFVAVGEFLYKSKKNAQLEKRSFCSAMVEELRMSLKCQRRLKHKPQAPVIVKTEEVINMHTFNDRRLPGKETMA
Chain of UniProt P48051 (whole entry, looked up): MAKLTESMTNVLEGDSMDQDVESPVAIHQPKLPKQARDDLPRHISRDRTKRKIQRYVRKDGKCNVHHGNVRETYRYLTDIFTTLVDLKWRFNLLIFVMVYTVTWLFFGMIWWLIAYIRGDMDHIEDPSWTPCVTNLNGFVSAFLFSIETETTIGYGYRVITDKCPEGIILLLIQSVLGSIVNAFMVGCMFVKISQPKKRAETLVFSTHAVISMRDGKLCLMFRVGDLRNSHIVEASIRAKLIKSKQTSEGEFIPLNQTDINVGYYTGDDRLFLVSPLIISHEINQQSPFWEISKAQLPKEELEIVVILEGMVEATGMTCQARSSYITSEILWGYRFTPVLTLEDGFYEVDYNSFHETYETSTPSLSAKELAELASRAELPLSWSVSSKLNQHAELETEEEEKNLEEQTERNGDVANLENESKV
Chain of UniProt Q9H1C0 (whole entry, looked up): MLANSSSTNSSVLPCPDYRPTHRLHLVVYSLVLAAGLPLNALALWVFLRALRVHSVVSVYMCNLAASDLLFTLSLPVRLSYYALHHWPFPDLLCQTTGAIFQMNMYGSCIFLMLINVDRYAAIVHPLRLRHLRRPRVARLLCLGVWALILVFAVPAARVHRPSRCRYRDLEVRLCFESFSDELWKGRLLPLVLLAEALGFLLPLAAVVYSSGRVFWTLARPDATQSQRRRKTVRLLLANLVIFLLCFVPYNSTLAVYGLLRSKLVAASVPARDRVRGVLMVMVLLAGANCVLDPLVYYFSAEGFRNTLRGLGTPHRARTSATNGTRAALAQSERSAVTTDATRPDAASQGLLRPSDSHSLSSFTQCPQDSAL
Chain of UniProt P28336 (whole entry, looked up): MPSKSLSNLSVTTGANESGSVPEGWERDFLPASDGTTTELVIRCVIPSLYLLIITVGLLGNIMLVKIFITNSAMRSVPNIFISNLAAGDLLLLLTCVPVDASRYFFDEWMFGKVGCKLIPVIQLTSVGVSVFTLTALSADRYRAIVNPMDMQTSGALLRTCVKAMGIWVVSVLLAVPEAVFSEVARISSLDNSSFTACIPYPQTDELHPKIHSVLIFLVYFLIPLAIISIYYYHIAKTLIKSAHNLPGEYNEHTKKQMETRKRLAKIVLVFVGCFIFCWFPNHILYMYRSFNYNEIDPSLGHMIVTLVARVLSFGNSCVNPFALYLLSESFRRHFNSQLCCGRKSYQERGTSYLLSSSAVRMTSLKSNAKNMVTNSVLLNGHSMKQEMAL

CC(=O)N[C@H]1[C@@H](O[C@H]2[C@H](O)[C@@H](O)[C@H](O[C@H]3[C@H](O)[C@@H](NC(C)=O)[C@@H](OCCCCCN)O[C@@H]3COS(=O)(=O)O)O[C@@H]2C(=O)O)O[C@H](COS(=O)(=O)O)[C@@H](O[C@@H]2O[C@@H](C(=O)O)[C@@H](O)[C@H](O)[C@H]2O)[C@@H]1O — IC50 (Beta-secretase 1 (BACE1, Homo sapiens, UniProt P56817); enzyme activity, inhibitor, FRET; pH 4.5): 94 µM
CCCS(=O)(=O)Nc1ccc(F)c(C(=O)c2c[nH]c3ncc(-c4ccc(Cl)cc4)cc23)c1F — IC50 (SLCO1B3 (Homo sapiens, UniProt Q9NPD5); substrate uptake, inhibitor; HEK293 overexpressing SLCO1B3; 3 min, 100% human plasma, with: [3H]-CCK-8 1 µM): 0.0023 µM
C[C@]12C[C@@H]3C[C@](C)(C1)C[C@@](NC(=O)Nc1ccc(C(=O)N4CCC[C@H](C(=O)NCCCCC(=O)NO)C4)cc1F)(C3)C2 — IC50 (Ephx2 (Mus musculus, UniProt P34914); enzyme activity, inhibitor, fluorescence): 0.0013 µM
CCN1/C(=C/c2ccc3ccccc3[n+]2CC)C=Cc2ccccc21 — IC50 (SLC29A4 (Homo sapiens, UniProt Q7RTT9); transporter uptake, inhibitor, radiometric; pH 7.4): 0.124 µM
O=C(O)c1ccccn1 — IC50 (mushroom tyrosinase; diphenolase activity, inhibitor; pH 6.8, 20 °C, with: caffeic acid substrate): 3690 µM
O=C1NC(=S)/C(=C/c2ccc3c(c2)OCO3)S1 — IC50 (PIK3CA; enzyme activity, inhibitor): 0.45 µM
CSCC[C@H](NC(=O)[C@@H](Cc1c[nH]c2ccccc12)NC(=O)[C@@H](Cc1c[nH]c2ccccc12)NC(=O)[C@H](Cc1ccccc1)NC(=O)[C@@H](Cc1c[nH]c2ccccc12)NC(=O)[C@H](CCC(N)=O)NC(=O)[C@H](CCC(N)=O)NC(=O)[C@H]1CCCN1)C(N)=O — IC50 (NMBR (Homo sapiens, UniProt P28336); binding, radioligand displacement; Balb 3T3 or NCI-H1299): 4.5 to 10 µM
O=C(Nc1cc(F)c(Cl)c(F)c1)c1cc(S(=O)(=O)N2CCOCC2)c(Cl)cc1Cl — IC50 (LPAR5 (Homo sapiens, UniProt Q9H1C0); Ca2+ mobilization, antagonist; B103; with: LPA at EC50): > 100 µM
CC(=O)Oc1cc(-c2coc3cc(OC(C)=O)c(OC(C)=O)c(OC(C)=O)c3c2=O)cc(OC(C)=O)c1OC(C)=O — IC50 (mRNA triphosphatase Cet1 (Trypanosoma brucei brucei, UniProt Q582T2); enzyme activity, Transcreener ADP fluorescence polarization; 3 h, with: 50 µM ATP): 0.71 µM
Cc1cccc(-c2ccc(Cn3cccc(O)c3=S)cc2)c1 — IC50 (HDAC1 (Homo sapiens, UniProt Q13547); enzyme activity, inhibitor, SAMDI mass spectrometry): > 10 µM
Nc1nc(=O)c2c([nH]1)NCC(CNc1ccc(C(=O)N[C@@H](CCC(=O)O)C(=O)O)cc1)N2C=O (mixture of isomers) — IC50 (thyX (Mycobacterium tuberculosis, UniProt P9WG57); NADPH oxidase activity, inhibitor; with: 200 µM NADPH): 29 ± 6 µM
Cc1occc(=O)c1O — IC50 (Egl nine homolog 1 (EGLN1, Homo sapiens, UniProt Q9GZT9); ODDD peptide hydroxylation, inhibitor, MALDI-TOF MS; pH 7.00, 37.0 °C, with: 2-oxoglutarate 10 µM): 1000 µM
Cc1cc(C)cc(OCC(O)Cn2c(=N)n(Cc3ccccc3)c3ccccc32)c1 (centres unmarked) — IC50 (Kir3.1/Kir3.2 (Homo sapiens, UniProt P48051+P48549); ion flux): 4.33 µM
O=C(c1ccc(COc2ccccc2-c2cc(=O)n(C3CCCCC3O)cn2)cc1)N1CCCCC1 (centres unmarked) — change in baseline activity (CHRM1 (Homo sapiens, UniProt P11229); allosteric agonist, IP1 accumulation; CHO-M1 cells; 1 µM, unit not given; reference: maximum ACh response): 11.1 ± 3
COc1ccc(-n2c(/C=C/c3cccc([N+](=O)[O-])c3)nc3ccccc3c2=O)cc1 — IC50 (Grik2 (Rattus norvegicus, UniProt P42260); ion current, inhibitor, two-electrode voltage clamp; Xenopus oocytes; concanavalin A pretreatment, with: 100 µM glutamate): > 300 µM
CNCCC[C@@]1(c2ccc(F)cc2)OCc2cc(C#N)ccc21 — IC50 (Slc6a4 (Mus musculus, UniProt Q60857)): 0.02 µM
O=c1cc(N2CCOCC2)oc2c(OCc3cccnc3)cccc12 — IC50 (PIK3CA; enzyme activity, inhibitor): 0.84 µM

For quick reference, copied from above:
COc1ccc(-n2c(/C=C/c3cccc([N+](=O)[O-])c3)nc3ccccc3c2=O)cc1 — IC50 (Grik2 (Rattus norvegicus, UniProt P42260); ion current, inhibitor, two-electrode voltage clamp; Xenopus oocytes; concanavalin A pretreatment, with: 100 µM glutamate): > 300 µM
O=C(c1ccc(COc2ccccc2-c2cc(=O)n(C3CCCCC3O)cn2)cc1)N1CCCCC1 (centres unmarked) — change in baseline activity (CHRM1 (Homo sapiens, UniProt P11229); allosteric agonist, IP1 accumulation; CHO-M1 cells; 1 µM, unit not given; reference: maximum ACh response): 11.1 ± 3
